Measured values pooled from the literature.
A part holds a random share of what one study measured. Changes are numbered by the printed parent chain.

Sample 1 — technique: DHFR PCA, deep sequencing; medium: yeast; with: (+)-ABA 0.11 µM; reference: wild-type fitted maximum; reading: higher = stronger binding
Target: ABI1, truncated, D143A, DHFR fusion (Arabidopsis thaliana)
Notes: methotrexate growth selection, single substitutions
Parent: PYL1, truncated, DHFR fusion (Arabidopsis thaliana); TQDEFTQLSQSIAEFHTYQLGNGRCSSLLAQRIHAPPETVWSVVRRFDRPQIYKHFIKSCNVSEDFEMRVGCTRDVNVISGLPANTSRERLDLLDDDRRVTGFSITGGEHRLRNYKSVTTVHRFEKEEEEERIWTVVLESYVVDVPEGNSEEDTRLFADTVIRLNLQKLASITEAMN; partner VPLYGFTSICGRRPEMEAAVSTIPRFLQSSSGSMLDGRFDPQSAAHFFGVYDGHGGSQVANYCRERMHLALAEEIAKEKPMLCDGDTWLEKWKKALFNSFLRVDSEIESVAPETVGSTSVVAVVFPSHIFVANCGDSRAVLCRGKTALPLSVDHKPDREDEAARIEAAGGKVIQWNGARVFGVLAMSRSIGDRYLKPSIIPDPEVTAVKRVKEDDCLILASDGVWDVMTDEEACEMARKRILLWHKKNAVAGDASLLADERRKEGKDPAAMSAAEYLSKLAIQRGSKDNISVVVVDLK
Variant | relative binding score [%]
V142F | 0.205
E152L | 7.6
E131M | 37.7
C72Y | -2.37
E14D | 17.1
L91W | 3.82
V136G | 1.28
V44N | -1.69
V43W | -5.89
T6H | 40.3
V136P | 1.99
R46M | 4.73
L8A | 10.9
V40I | -0.598
L166F | -4.68
H122M | 0.12
A175F | -5.16
T160Y | 20.7
I52F | 10.5

Sample 2 — technique: EMSA with sequencing; molecule type: double-stranded DNA, one strand shown; medium: in vitro; concentration: 10 and 20 nM; reference: negative control set to 0; reading: higher = stronger binding
Target: Hepatocyte nuclear factor 3-alpha (Foxa1, Mus musculus, UniProt P35582, residues 1-468, full length assumed)
Notes: whole designed probe, mean of two concentrations, ends assumed
Residues (chain): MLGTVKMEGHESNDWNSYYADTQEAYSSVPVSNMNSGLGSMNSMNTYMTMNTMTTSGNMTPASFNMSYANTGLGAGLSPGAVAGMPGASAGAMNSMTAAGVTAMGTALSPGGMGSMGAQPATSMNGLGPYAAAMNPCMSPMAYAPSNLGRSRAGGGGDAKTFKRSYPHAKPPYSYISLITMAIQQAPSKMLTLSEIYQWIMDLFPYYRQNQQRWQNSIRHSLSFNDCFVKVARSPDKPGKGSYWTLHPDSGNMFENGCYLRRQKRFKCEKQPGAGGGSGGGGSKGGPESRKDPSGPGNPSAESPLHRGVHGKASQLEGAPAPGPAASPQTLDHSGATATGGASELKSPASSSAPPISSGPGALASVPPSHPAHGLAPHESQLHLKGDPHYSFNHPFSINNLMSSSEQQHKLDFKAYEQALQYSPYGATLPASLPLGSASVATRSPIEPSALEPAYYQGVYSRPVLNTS
Strand | normalised bound fraction [ratio]
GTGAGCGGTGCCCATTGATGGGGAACTTTAAAAAGCATTTAACCTAAGTACTGTTTTAGAGGTGACAAATTTAGTGGTGTGTCCCCATGAGAAAATATTTCAAACATTACCAAAATTCCTTGTTTACATATTACATCATCGTTCCTAGAAAATATATCTAAATCCTCTATTTTAGGTATAAAAGCAAAAAAAAGTAAGGTTTCAGTTGATTTCACTTAATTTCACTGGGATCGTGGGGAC | 0.3
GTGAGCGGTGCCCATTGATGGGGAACCACGTGGGTATTACCAAGCATGAAATTATCATCTAAAAACTCAATTTTAAAGAGCTGGTTCTTTGGGAAAAATAAGAAAGAACATTTCTTCCTGTTTACTCTGAGATTTGCTTTTTTTTCCCCAATAATGTGGTTATTGCGTCTTTCTTAATCTTTAGCGATTAGGCTTGAATTTTCACCTAGTGTCCAATTTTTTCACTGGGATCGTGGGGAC | 0.0351
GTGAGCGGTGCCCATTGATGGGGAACACTCTGTAATTTTACACACGTGAAATTTCTCTGTTTCAAAAATAATAATACCAAGCATCTATAGGAGAGTAAATTGATACCAACATCAAAATGTAATCTTGGAAGGTAAGAGAATTTTATAAGATCTGCTTTTTACACTTTCTTTTTCATATTCTATAAAAAGAGTACAACATAAGCAAAATGGTTGTCTAAATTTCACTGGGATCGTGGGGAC | -0.058
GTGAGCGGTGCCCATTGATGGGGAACCCCTTAACCTACTCCTAAATCCTCTTTCCTTTTCCTTTCTAAATATCCTTTCGTGCTGTGAAGGGAAGAATGGAGGTGGGTCTTATTGCTACTAAATGACACATATCAGGTTTAGCTACACAATATGTTTGTAATTAAAAGCTTCAGCAAGAATATTCTGCTCCTTTCCTTTGAGGATTTGCAGAGCACAGGCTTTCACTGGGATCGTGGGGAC | -0.0087
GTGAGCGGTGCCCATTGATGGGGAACAATGCATTAAGAAAAAGTACACAAATAGTAAGTATACAGCTCAATACATTATTTTGTGAAAATACCTATGTAAGAACTAATGTTGGCAATTAAAGTAAACATGAATAAAACCTTCAAGAAGCCCTCAACATCCCACTTCCAAGTCACCAAACCCACTATTCCATTAGCAATGTGTGAGATTGTCAGTTGCTCTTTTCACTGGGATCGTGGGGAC | 0.404
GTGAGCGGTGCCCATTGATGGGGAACCACATAGACTACAGTCTATGAAAAACATATTCATTTTTTAGGATAATATATAAGATCTCTGAAATGACAATTCACACAAAAGTAATAAAAATGTAATCTAGCATCAAAACTGATACAACAGATCACACTAATTGCCAAAAGTGCAGAAAGAGAAAAATTGGGTATAACAGCAATAACCTTATAAAATGTCAGATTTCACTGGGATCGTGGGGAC | 0.00443
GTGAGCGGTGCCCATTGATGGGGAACCTGAATACATCAAAATTGTGTGAGATTATTGTTACCAATAACAAATAAATCTACTTACAAGTGGACCTTATTGTTAGACATGGCATGGCAATGTAAACATAGAACCTTTGAATCAATAAATATAAAATTCATAAAGGATTACATTTTACAGTGGAACAAGTGGTTTCAAGTATAGCAAATCTGAAAATGAAAATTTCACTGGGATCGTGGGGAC | 0.5
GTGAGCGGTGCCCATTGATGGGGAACGCCCCTTCCTCCCCAGCTTTATTAGGGTGAGTGTTGGAGCCCACCCAAGGGTCCATGCTGTCATTGGTACTTTGCACCTACATGGCCATTCTGTTGTTTACTTTGGTTTGAGCCGTGGAAACAGAGACTGAAGAGCAGCAGGCACCAGCCTCTGTGCTGTCCCTACTCAGGCCCCCAGTTGGGGGTGAGGAGCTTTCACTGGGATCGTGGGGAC | 0.442

Sample 3 — technique: protein-binding microarray; molecule type: hairpin DNA; medium: in vitro; concentration: not given; reference: not given; reading: higher = stronger binding
Target: Runt-related transcription factor 3, Runt domain (RUNX3, Homo sapiens, UniProt Q13761, residues 53-186)
UniProt Q13761, sequence (53-186, looked up): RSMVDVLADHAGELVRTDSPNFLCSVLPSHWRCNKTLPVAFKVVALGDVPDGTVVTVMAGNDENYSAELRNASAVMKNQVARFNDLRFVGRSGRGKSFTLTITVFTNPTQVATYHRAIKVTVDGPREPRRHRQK
Notes: whole hairpin DNA, median over replicate spots
Strand | median fluorescence
GAGGCCTGTCGCGGTTGGCCTCCTGGCCAACCGCGACAGGCCTCACACTC (5mC at 12) | 5440 a.u.
GAGGCCTGTCGCGGTTGGCCTCCTGGCCAACCGCGACAGGCCTCACACTC (5mC at 10 32 34) | 5090 a.u.
GAGGCCTGTCGCGGTTGGCCTCCTGGCCAACCGCGACAGGCCTCACACTC (5mC at 42) | 6430 a.u.
GAGGCCTGTCGCGGTTGGCCTCCTGGCCAACCGCGACAGGCCTCACACTC (5mC at 41) | 6010 a.u.
GAGGCCCAACCGCTACAGCCTCCTGGCTGTAGCGGTTGGGCCTCACACTC | 5540 a.u.
GAGGCCCAACCGCAGCAGCCTCCTGGCTGCTGCGGTTGGGCCTCACACTC (5mC at 30) | 8120 a.u.
GAGGCCGGTTGCGGTTGGCCTCCTGGCCAACCGCAACCGGCCTCACACTC | 10600 a.u.
GAGGCCCAACCGCAACTGCCTCCTGGCAGTTGCGGTTGGGCCTCACACTC | 9140 a.u.
CTCAGTTCCGTGGGCTGGACTCCTGTCCAGCCCACGGAACTGAGACACTC (5mC at 9) | 4580 a.u.
GAGGCCTGTTGCGCTTGGCCTCCTGGCCAAGCGCAACAGGCCTCACACTC | 4750 a.u.
CTCAGTTCCGTGGGCTGGACTCCTGTCCAGCCCACGGAACTGAGACACTC (5mC at 35) | 4390 a.u.
CTCAGTTCTGTCGGCTGGACTCCTGTCCAGCCGACAGAACTGAGACACTC (5mC at 12 32) | 3770 a.u.

Sample 4 — target: CCNA1, cyclin fold, Cln2 fusion (human); technique: yeast growth competition, sequencing; medium: yeast; notes: strong parent motif; reference: not given; reading: higher = stronger binding
Parent: RBL2 docking peptide (human); STTRRRLFVENDS
Variant | normalised enrichment score
STTRRRLFVENMS [D12M] | 0.485
STTRRRRFVENDS [L7R] | 0.48
SMTRRRLFVENDS [T2M] | 0.614
DTTRRRLFVENDS [S1D] | 0.687
STTRRRLFVENFS [D12F] | 0.353
STTRRRLFVENLS [D12L] | 0.309
STTRRRLFVENDF [S13F] | 0.709
STTRRRLFLENDS [V9L] | 0.51
STTRRRLFVENYS [D12Y] | 0.721
ITTRRRLFVENDS [S1I] | 0.567
STTRYRLFVENDS [R5Y] | 0.286
STTRRRLFEENDS [V9E] | 0.529
STTRRMLFVENDS [R6M] | 0.422
SFTRRRLFVENDS [T2F] | 0.493
STTRRRLCVENDS [F8C] | 0.502
STTRRRLFAENDS [V9A] | 0.757
STTRRRLFMENDS [V9M] | 0.856
QTTRRRLFVENDS [S1Q] | 0.581
STTRRRLFVENRS [D12R] | 0.3

Some of these lines once more (sample 4):
Variant | normalised enrichment score
STTRRRLFVENYS [D12Y] | 0.721
ITTRRRLFVENDS [S1I] | 0.567
STTRYRLFVENDS [R5Y] | 0.286
STTRRRLFEENDS [V9E] | 0.529
STTRRMLFVENDS [R6M] | 0.422
SFTRRRLFVENDS [T2F] | 0.493
STTRRRLCVENDS [F8C] | 0.502
